Published values gathered from unrelated publications.
A part holds a random share of what one study measured.

Block 1 — method: RNA Bind-n-Seq; form: RNA; sample: in vitro; concentration: 15 pmol; setting: 4-mer, random 30-nt RNA, single round; added: DMSO vehicle, 2 mM AMP-PNP; relative to: input library; direction: higher = stronger binding
Target: Eukaryotic initiation factor 4A-I (EIF4A1, Homo sapiens, UniProt P60842, residues 1-406, full length assumed)
Chain of UniProt P60842 (whole entry, looked up): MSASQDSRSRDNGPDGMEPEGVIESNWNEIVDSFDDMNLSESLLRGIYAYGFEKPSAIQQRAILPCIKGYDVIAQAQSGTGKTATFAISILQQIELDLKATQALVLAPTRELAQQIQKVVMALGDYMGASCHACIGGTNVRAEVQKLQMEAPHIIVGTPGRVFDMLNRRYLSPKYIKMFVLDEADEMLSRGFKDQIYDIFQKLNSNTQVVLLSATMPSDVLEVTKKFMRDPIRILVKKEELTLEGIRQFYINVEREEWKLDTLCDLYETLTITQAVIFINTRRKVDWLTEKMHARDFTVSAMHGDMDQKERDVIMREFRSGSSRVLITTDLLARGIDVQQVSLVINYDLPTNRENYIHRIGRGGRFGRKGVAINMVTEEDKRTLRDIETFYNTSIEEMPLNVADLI
`GAUA` gave a 4-mer enrichment of 1.09 fold.
For `ACUA`, the 4-mer enrichment was 0.881 fold.
`ACGG` has a 4-mer enrichment of 1.31 fold.
With `UCCG` the 4-mer enrichment was 0.837 fold.
`CCUC` gave a 4-mer enrichment of 2.08 fold.
With `GCAU` the 4-mer enrichment was 0.926 fold.
`CUGU` has a 4-mer enrichment of 0.737 fold.
`CGCA` gave a 4-mer enrichment of 1.01 fold.

Block 2 — method: competition protein-binding microarray; form: double-stranded DNA, one strand shown; sample: in vitro; concentration: 2 µM; added: Cbf1 competitor, 0.05 µM; direction: higher = stronger binding
Target: Phosphate system positive regulatory protein PHO4, full length, GST-tagged (PHO4, Saccharomyces cerevisiae, UniProt P07270, residues 1-312)
Setting: whole 60-bp probe, lowest competitor level
Target sequence (chain): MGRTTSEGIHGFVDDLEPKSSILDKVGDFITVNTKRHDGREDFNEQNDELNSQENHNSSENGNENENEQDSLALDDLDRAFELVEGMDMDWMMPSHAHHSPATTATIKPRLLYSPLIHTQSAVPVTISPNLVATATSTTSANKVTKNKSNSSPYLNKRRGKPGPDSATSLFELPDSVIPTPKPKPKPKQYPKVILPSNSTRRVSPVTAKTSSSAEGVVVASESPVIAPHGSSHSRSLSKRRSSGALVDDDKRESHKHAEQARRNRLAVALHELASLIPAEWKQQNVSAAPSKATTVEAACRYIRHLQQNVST
The fluorescence intensity of `CTTTCCCGATCTTGTGGAGTGGGTGTAGCACATTTGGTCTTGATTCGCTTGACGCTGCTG` is reported as 5210 a.u.
The fluorescence intensity of `GGAGCCCTTGCACTCCACGTGGCCTGCCTCCCTGGGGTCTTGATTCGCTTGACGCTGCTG` is reported as 18600 a.u.
For `CTCTAATTTTACCATCACGTGCCGATTCTAGTCATTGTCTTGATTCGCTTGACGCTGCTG`, the fluorescence intensity was 20700 a.u.
`GAACAGTGCCTGCACCTCGTGTATCGCGATGCGGAGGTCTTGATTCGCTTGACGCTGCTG` gave a fluorescence intensity of 10700 a.u.
`CTTTTTCGCGGGATTGTCGTGCTTTTCAACCATTTTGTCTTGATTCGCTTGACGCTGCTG` has a fluorescence intensity of 5580 a.u.
`CTTCAACAACATCGGCACGGGAGTGGGATTTAGCGGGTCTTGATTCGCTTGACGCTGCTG` gave a fluorescence intensity of 9820 a.u.
With `TCAGTTCAAGCAGGGAACGTGCCAGACATGGCTAGTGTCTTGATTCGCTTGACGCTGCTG` the fluorescence intensity was 13700 a.u.
`CGGGGTTAAGTTTGGGAGGTGGGTGGCTTGCAGCAGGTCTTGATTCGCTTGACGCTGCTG` has a fluorescence intensity of 4860 a.u.

Block 3 — method: aptamer microarray, sandwich; form: DNA with 2'F-ANA; sample: in vitro; concentration: 200 nM; added: Cy3 exosite-II aptamer, 400 nM; direction: higher = stronger binding; strand: GGTTGGTGTGGTTGG
Target: Prothrombin, mature alpha-thrombin (F2, Homo sapiens, UniProt P00734)
Setting: whole 15-mer aptamer, many near background
Under “mean fluorescence intensity”, `2'F-ANA at 2 3 4 5 7 8 12 14` is recorded as 274 a.u.
`2'F-ANA at 1 2 4 5 6 7 8 10 11 14 15`: “mean fluorescence intensity” 57.6 a.u.
Under “mean fluorescence intensity”, `2'F-ANA at 1 3 4 6 7` is recorded as 206 a.u.
Under “mean fluorescence intensity”, `2'F-ANA at 3 4 8 12 13 14` is recorded as 437 a.u.
For `2'F-ANA at 1 4 6 9 10 14 15`, “mean fluorescence intensity” read 55.5 a.u.
For `2'F-ANA at 4 7 9 13 14 15`, “mean fluorescence intensity” read 88 a.u.
Under “mean fluorescence intensity”, `2'F-ANA at 1 2 3 5 7 8 10 11` is recorded as 48.1 a.u.
For `2'F-ANA at 1 2 6 7 11 12 13 15`, “mean fluorescence intensity” read 191 a.u.

Other studies, line by line
The remaining compound of `Cc1nc(-c2ccc(F)cc2)cc2c1sc1ccccc12` is reported as 17.1% (human, microsomes or S9; 2 µM, 0.5 h).

Excerpt of the above (block 2):
`CTTTTTCGCGGGATTGTCGTGCTTTTCAACCATTTTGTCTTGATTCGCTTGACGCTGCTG` has a fluorescence intensity of 5580 a.u.
`CTTCAACAACATCGGCACGGGAGTGGGATTTAGCGGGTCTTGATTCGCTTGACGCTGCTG` gave a fluorescence intensity of 9820 a.u.
With `TCAGTTCAAGCAGGGAACGTGCCAGACATGGCTAGTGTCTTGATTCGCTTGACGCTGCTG` the fluorescence intensity was 13700 a.u.
`CGGGGTTAAGTTTGGGAGGTGGGTGGCTTGCAGCAGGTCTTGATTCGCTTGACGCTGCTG` has a fluorescence intensity of 4860 a.u.
